Results gathered from unrelated publications.
Lines come from different studies, so protocols differ. Numbers after ± are the reported error.

Substance	organism	test	test system	setting	MIC
CC[C@H](C)[C@H](NC(=O)[C@H](CCCCN)NC(=O)[C@H](CCCCN)NC(=O)[C@H](CC(C)C)NC(=O)[C@@H](NC(=O)[C@H](CCCCN)NC(=O)[C@H](C)NC(=O)[C@H](C)NC(=O)[C@@H](NC(=O)CNC(=O)[C@H](C)NC(=O)[C@@H](NC(=O)[C@@H](NC(=O)[C@@H]1CCCN1C(=O)[C@H](Cc1ccccc1)NC(=O)[C@@H](N)Cc1ccccc1)[C@@H](C)CC)C(C)C)C(C)C)C(C)C)C(=O)N[C@@H](Cc1ccccc1)C(=O)N[C@H]1CSSC[C@@H](C(=O)O)NC(=O)[C@H](CCCCN)NC(=O)[C@H](CCCCN)NC(=O)[C@H](CO)NC(=O)[C@H]([C@@H](C)CC)NC(=O)[C@H]([C@@H](C)O)NC1=O	Candida albicans		10231	18 h, 37 °C	> 128 µM
CC(C)C[C@H](NC(=O)[C@H](CCCCN)NC(=O)[C@H](C)NC(=O)[C@H](CC(C)C)NC(=O)[C@H](CCCCN)NC(=O)[C@H](CCCCN)NC(=O)[C@H](C)NC(=O)[C@H](CC(C)C)NC(=O)[C@H](CCCCN)NC(=O)[C@H](C)NC(=O)[C@H](CC(C)C)NC(=O)[C@@H](N)CCCCN)C(=O)N[C@@H](C)C(=O)N[C@@H](CCCCN)C(N)=O	Enterobacter aerogenes		ATCC 13048	18 to 20 h	> 32 µM
Cc1ccc(C(=O)N/N=C/c2ccccc2)cc1	Candida albicans, Aspergillus niger	fungal growth			24.5 µM
CC(C)C[C@H](NC(=O)[C@H](CCCNC(=N)N)NC(=O)[C@H](CC(C)C)NC(=O)[C@@H](NC(=O)[C@H](CC(C)C)NC(=O)[C@H](Cc1c[nH]cn1)NC(=O)[C@H](C)NC(=O)[C@@H](NC(=O)[C@@H](N)CO)[C@@H](C)O)C(C)C)C(=O)N[C@@H](CCCNC(=N)N)C(=O)NCC(=O)NCC(=O)O	Bacillus megaterium		899	37 °C, ≥90% viability decrease	50 µM
CCCCCCCCCCCCCC(=O)N/N=C/c1ccccc1	Candida albicans, Aspergillus niger	fungal growth			57.5 µM
LSTFFRLFNGRRRRSVQWCA	Streptococcus gordonii	broth microdilution	peptide, ATCC 10558	24 h, 37 °C, planktonic, anaerobic	49.8 ± 16.9 µg/mL
CCCCCCCCCCCCCCCC(=O)N/N=C/c1ccccc1	Candida albicans, Aspergillus niger	fungal growth			49 µM
CC(=O)C1=C(O)C(CC(C)C)NC1=O (centres unmarked)	Clostridioides difficile	microbial growth, broth dilution	BAA1803	24 h	> 128 µg/mL
CCOC(=O)[C@@]1(CS)N[C@H](C(=O)O)C(C)(C)S1	Proteus mirabilis	broth microdilution	clinical isolate	compound at 100 mg/L, added: meropenem	16 µg/mL
O=C(N/N=C/c1ccccc1Cl)c1cc([N+](=O)[O-])cc([N+](=O)[O-])c1	Candida albicans, Aspergillus niger	fungal growth			14.8 µM
CC[C@H](C)C[C@H](C)CCCCCCCCC(=O)N[C@H]1C[C@@H](O)[C@@H](NCCN)NC(=O)[C@@H]2[C@@H](O)CCN2C(=O)[C@H]([C@H](O)CCN)NC(=O)[C@H]([C@H](O)[C@@H](O)c2ccc(O)cc2)NC(=O)[C@@H]2C[C@@H](O)CN2C(=O)[C@H]([C@@H](C)O)NC1=O	Candida albicans		ATCC 10231, RPMI 1640, 0.165 M MOPS	24 h, 35 °C, 100% inhibition endpoint	0.2 µg/mL
LSTFFRLFNRSFTQGRRRRSVQWCA	Streptococcus sanguinis	broth microdilution	peptide, ATCC 49295	24 h, 37 °C, planktonic, anaerobic	99.6 ± 33.7 µg/mL
CC(C)C[C@H](NC(=O)[C@H](CCCNC(=N)N)NC(=O)[C@@H]1CCCN1C(=O)[C@H](CCCNC(=N)N)NC(=O)[C@@H]1CCCN1C(=O)[C@@H]1CCCN1C(=O)[C@H](CCCNC(=N)N)NC(=O)[C@@H]1CCCN1C(=O)[C@H](CCC(N)=O)NC(=O)[C@@H]1CCCN1C(=O)[C@H](CCCNC(=N)N)NC(=O)[C@H](Cc1ccc(O)cc1)NC(=O)[C@@H](NC(=O)[C@@H]1CCCN1C(=O)[C@H](CCCCN)NC(=O)[C@H](CC(N)=O)NC(=O)[C@H](CC(N)=O)NC(=O)CN)C(C)C)C(=O)O	Salmonella enterica serovar Typhimurium		SL1344, Mueller-Hinton broth	18 h, 37 °C	0.192 ± 0.044 µM
CC[C@H](C)[C@H](NC(=O)CNC(=O)[C@H](CC(=O)O)NC(=O)[C@H](CCCNC(=N)N)NC(=O)[C@@H](NC(=O)[C@H](CC(N)=O)NC(=O)[C@H](CCCNC(=N)N)NC(=O)CNC(=O)[C@@H](NC(=O)[C@H](CCCCN)NC(=O)[C@H](CCC(=O)O)NC(=O)[C@@H](NC(=O)[C@H](CCCCN)NC(=O)[C@H](CCCCN)NC(=O)[C@H](Cc1ccccc1)NC(=O)[C@@H](NC(=O)[C@H](CCCCN)NC(=O)[C@H](Cc1c[nH]c2ccccc12)NC(=O)[C@@H](N)CCCCN)[C@@H](C)CC)[C@@H](C)CC)C(C)C)C(C)C)C(=O)N[C@H](C(=O)N[C@@H](CCCCN)C(=O)N[C@@H](C)C(=O)NCC(=O)N1CCC[C@H]1C(=O)N[C@@H](C)C(=O)N[C@H](C(=O)N[C@@H](CCC(N)=O)C(=O)N[C@H](C(=O)N[C@H](C(=O)NCC(=O)N[C@@H](CCC(N)=O)C(=O)N[C@@H](C)C(=O)N[C@H](C(=O)N[C@@H](CO)C(=O)N[C@H](C(=O)N[C@@H](C)C(=O)N[C@@H](CCCCN)C(N)=O)[C@@H](C)CC)[C@@H](C)O)C(C)C)C(C)C)C(C)C)[C@@H](C)CC	Candida albicans	broth microdilution	ATCC 90028	20 h, 37 °C	> 200 µg/mL
CC(C)C[C@H](NC(=O)[C@H](C)NC(=O)[C@H](CC(C)C)NC(=O)[C@H](Cc1c[nH]cn1)NC(=O)[C@H](CC(C)C)NC(=O)[C@@H](NC(=O)[C@@H](N)CO)[C@@H](C)O)C(=O)N[C@@H](CCCNC(=N)N)C(=O)N[C@@H](CC(C)C)C(=O)N[C@@H](CCCNC(=N)N)C(=O)NCC(=O)NCC(=O)O	Bacillus megaterium		899	37 °C, ≥90% viability decrease	50 µM
C/C=C/C=C/C(=O)N/N=C/c1ccccc1	Candida albicans, Aspergillus niger	fungal growth			57.5 µM
CSCC[C@H](N)C(=O)N[C@@H](CCCCN)C(=O)N[C@@H](CCCNC(=N)N)C(=O)N[C@@H](CCCNC(=N)N)C(=O)N[C@@H](CCCNC(=N)N)C(=O)N[C@@H](CCCCN)C(=O)N[C@@H](Cc1ccccc1)C(=O)N[C@@H](CO)C(=O)N[C@@H](Cc1c[nH]cn1)C(=O)N[C@@H](Cc1ccccc1)C(=O)N[C@@H](CO)C(=O)N[C@@H](Cc1ccccc1)C(=O)N[C@@H](CCCCN)C(=O)N[C@@H](CCCNC(=N)N)C(=O)NCC(=O)N[C@@H](Cc1ccc(O)cc1)C(=O)O	Micrococcus luteus				4 µM
CCOC(=O)[C@@]1(CS)N[C@@H](C(=O)O)CS1	Proteus mirabilis	broth microdilution	clinical isolate	compound at 100 mg/L, added: meropenem	8 µg/mL
CC(C)C[C@H](NC(=O)[C@H](CCCNC(=N)N)NC(=O)[C@H](CC(C)C)NC(=O)[C@@H](NC(=O)[C@H](C)NC(=O)[C@H](Cc1c[nH]cn1)NC(=O)[C@H](CC(C)C)NC(=O)[C@@H](NC(=O)[C@@H](N)CO)[C@@H](C)O)C(C)C)C(=O)N[C@@H](CCCNC(=N)N)C(=O)NCC(=O)NCC(=O)O	Bacillus megaterium		899	37 °C, ≥90% viability decrease	50 µM
O=C(NCc1ccc2c(c1)OCO2)c1ncc(Br)cc1F	Aspergillus brasiliensis	microbial growth	ATCC16404	72 h	50 µM
CC(C)C[C@H](NC(=O)[C@H](CCCNC(=N)N)NC(=O)[C@@H]1CCCN1C(=O)[C@H](CCCNC(=N)N)NC(=O)[C@@H]1CCCN1C(=O)[C@@H]1CCCN1C(=O)[C@H](CCCNC(=N)N)NC(=O)[C@@H]1CCCN1C(=O)[C@H](CCC(N)=O)NC(=O)[C@@H]1CCCN1C(=O)[C@H](CCCNC(=N)N)NC(=O)[C@H](Cc1ccc(O)cc1)NC(=O)[C@@H](NC(=O)[C@@H]1CCCN1C(=O)[C@H](CCCNC(=N)N)NC(=O)[C@H](CC(N)=O)NC(=O)[C@H](CC(N)=O)NC(=O)CN)C(C)C)C(=O)O	Salmonella enterica serovar Typhimurium		SL1344, Mueller-Hinton broth	18 h, 37 °C	0.126 ± 0.052 µM
O=C(/C=C/c1ccccc1)N/N=C/c1ccccc1Cl	Candida albicans, Aspergillus niger	fungal growth			17.4 µM
TFFRLFNRSFTGRRRRSVQWCA	Streptococcus sanguinis	broth microdilution	peptide, ATCC 49295	24 h, 37 °C, planktonic, anaerobic	99.6 ± 33.7 µg/mL
CC(C)C[C@H](NC(=O)[C@H](C)NC(=O)CNC(=O)[C@H](CC(C)C)NC(=O)[C@H](CC(C)C)NC(=O)[C@H](CCCCN)NC(=O)[C@H](CCCCN)NC(=O)[C@H](CC(C)C)NC(=O)[C@H](CC(C)C)NC(=O)[C@H](CCCCN)NC(=O)[C@H](CC(C)C)NC(=O)[C@H](CC(C)C)NC(=O)[C@@H](N)CCCCN)C(=O)NCC(N)=O	Klebsiella pneumoniae		ATCC 700603, CAMHB	18 h, 37 °C	5 µM
CCCCCCCCCCCCCCCC(=O)N/N=C/c1ccccc1Cl	Candida albicans, Aspergillus niger	fungal growth			20.4 µM
STFFRLFNRSFTQGRRRRSVQWCA	Streptococcus gordonii	broth microdilution	peptide, ATCC 10558	24 h, 37 °C, planktonic, anaerobic	49.8 ± 16.9 µg/mL
